Assay results gathered from unrelated publications.
Compare with care: the assays were run in different laboratories. “And” joins repeats or separate records; there may be more than shown. ± gives the spread as reported.

SMILES	tested on	assay	system	setting	how to read	quantity	result
Cc1cc(C(=O)Nc2nc3cccc(C)c3n2[C@H]2CCCCN(C(=O)/C=C/CN(C)C)C2)ccn1	Trypanosoma brucei CLK1 C215A	thermal stability, differential scanning fluorimetry			baseline: DMSO	ΔTm	1.17 °C and 1.26 °C and 1.22 °C
CNC(=O)C[C@H](Cc1ccc(F)cc1)NC(=O)[C@@H](Cc1ccc(Cl)cc1Cl)NC(=O)[C@H](N)Cc1ccccc1C#N	human chymotrypsin	enzyme activity, inhibitor	PANC-1 cell lysate			IC50	> 10 µM
CC[C@H](C)[C@@H]1NC(=O)[C@H](Cc2ccc(O)cc2)NC(=O)[C@@H](N)CSSC[C@@H](C(=O)N2CCC[C@H]2C(=O)N2CCC[C@H]2C(=O)NCC(N)=O)NC(=O)[C@H](CC(N)=O)NC(=O)[C@H](CCC(N)=O)NC1=O	oxytocin receptor (titi monkey)	membrane hyperpolarisation	CHO cells	added: pertussis toxin 150 ng/mL pretreatment 24 h		IC50	0.00048 µM
CNc1nc(N[C@@H](CCO)c2ccccc2Cl)nc(N2CCN(C(=O)CCl)C(C(=O)NCC3CCNC3=O)C2)n1 (stereo partly shown)	chymotrypsin, human	enzyme activity				IC50	> 50 µM
COc1ccc(NC(=O)c2ccc3[nH]c(-c4ccc(N(C)C)cc4)nc3c2)cn1	endogenous ERK-MYD88 complex	proximity ligation	HCT-116	concentration not given, unit not given	baseline: DMSO	ERK-MYD88 interaction	0.623 and 0.61 and 0.175
CC[C@H](C)[C@@H]1NC(=O)CNC(=O)[C@H](CC(=O)O)NC(=O)[C@H](CC(=O)O)NC(=O)[C@@H]2CSSC[C@@H]3NC(=O)[C@H](Cc4c[nH]cn4)NC(=O)[C@H](CCCNC(=N)N)NC(=O)[C@H](CCCNC(=N)N)NC(=O)[C@@H](NC(=O)[C@H](CO)NC(=O)[C@@H](N)Cc4c[nH]cn4)CSSC[C@H](NC(=O)[C@H](C)NC(=O)[C@H](Cc4c[nH]c5ccccc45)NC(=O)CNC(=O)[C@H](CSSC[C@@H](C(=O)N[C@@H](CCCCN)C(=O)N4CCC[C@H]4C(=O)N[C@@H](CC(C)C)C(=O)N[C@@H](CCCNC(=N)N)C(=O)N[C@H](C(=O)O)C(C)C)NC1=O)NC(=O)[C@H](CCCNC(=N)N)NC(=O)[C@H](CCCNC(=N)N)NC(=O)[C@H](CC(N)=O)NC(=O)[C@H](CCC(=O)O)NC(=O)[C@H](Cc1c[nH]cn1)NC3=O)C(=O)N[C@@H](Cc1ccc(O)cc1)C(=O)N2	hKv1.5 human			concentration not given		ion current	no effect
CC(C)NCCCn1c(Sc2cc3c(cc2I)OCO3)nc2c(N)ncnc21	epichaperome	PU-PET	human, tumour			tumour residence half-time	24 to 100 h
O=C1NC2(CC2)COc2ncc(F)cc2[C@H]2COCCN2c2ccn3ncc1c3n2			Sprague-Dawley rat, female, serum	oral, 5 mg/kg/day, end of recovery, 4-week repeated-dose toxicity		albumin/globulin ratio	2.42 ± 0.53
COc1ccccc1-c1n[nH]c2nc(NC3CCN(C(=O)Cc4ccc(F)cc4F)CC3)ncc12	HSPE1 LINJ.26.0590	bead competition pull-down	Leishmania extract	10 µM	baseline: vehicle	relative captured amount	0.79
CSCC[C@H](NC(=O)[C@@H](N)CSC1CC(=O)N(CCNC(=O)COc2ccc(/C=C/C3=[N+]4C(=Cc5ccc(-c6cccs6)n5[B-]4(F)F)C=C3)cc2)C1=O)C(=O)N[C@@H](CCC(=O)O)C(=O)N[C@@H](Cc1ccccc1)C(=O)N[C@H](C(=O)N[C@@H](C)C(=O)N[C@@H](CCCCN)C(=O)N[C@@H](CC(C)C)C(=O)N[C@@H](Cc1ccccc1)C(=O)N[C@@H](CCCCN)C(=O)N[C@@H](Cc1ccccc1)C(=O)N[C@@H](Cc1ccccc1)C(=O)N[C@@H](CCCCN)C(=O)N[C@@H](CC(=O)O)C(=O)N[C@@H](CC(C)C)C(=O)N[C@@H](CC(C)C)C(=O)NCC(=O)N[C@@H](CCCCN)C(=O)N[C@@H](Cc1ccccc1)C(=O)N[C@@H](CC(C)C)C(=O)NCC(=O)N[C@@H](CC(N)=O)C(=O)N[C@@H](CC(N)=O)C(=O)O)C(C)C (stereo partly shown)	mouse alpha-synuclein preformed fibrils			2 µM, 30 min, excitation 590 nm, added: 10 µM fibrils		fluorescence emission increase	16 fold
Nc1ncc(-c2cc(-c3cnn(CC(F)(F)F)c3)ncc2F)nc1C(=O)NC1CNCC(F)C1 (stereo not shown)	KIT V559D T670I	KINOMEscan		1 µM		remaining binding	80%
COc1ccccc1-c1n[nH]c2nc(N[C@H]3CC[C@H](NS(=O)(=O)CC(C)C)CC3)ncc12	Leishmania CKS1 LINJ.32.3940	bead competition pull-down	Leishmania donovani extract	10 µM	baseline: vehicle	relative captured amount	0.39
O=P(O)(O)Oc1c2c(c(OP(=O)(O)O)c3c1C1CC3c3cc4ccccc4cc31)C1CC2c2cc3ccccc3cc21	sphingomyelin	1H NMR titration	methanol-d4	CH2-N(Me)3 signal		association constant	144 ± 7 M⁻¹

Repeated from above:
SMILES	tested on	assay	system	setting	how to read	quantity	result
COc1ccccc1-c1n[nH]c2nc(NC3CCN(C(=O)Cc4ccc(F)cc4F)CC3)ncc12	HSPE1 LINJ.26.0590	bead competition pull-down	Leishmania extract	10 µM	baseline: vehicle	relative captured amount	0.79
